Measurements collected from several papers.
Compare with care: the assays were run in different laboratories.
Target: Carbonic anhydrase 2 (CA2, Homo sapiens, UniProt P00918)

observed | action | technique | quantity | value | SMILES
enzyme activity | inhibitor | absorbance | IC50 | 10 µM | CN1C=C(C(N)=O)[C@@H]2C[C@H](O)[C@@](NC(=O)CS(N)(=O)=O)(C(=O)O)[C@@H]2C1
binding |  |  | Kd | 0.14 µM | CN(C)c1ccc2c3c(cccc13)C(=O)N(CCc1ccc(S(N)(=O)=O)cc1)C2=O
enzyme activity | inhibitor | stopped-flow | Ki | 62.2 µM | O=C1CCCCO1
enzyme activity | inhibitor | absorbance | IC50 | 1 µM | CC[C@H](C)[C@H](N)C(=O)NS(=O)(=O)CC(=O)N[C@]1(C(=O)O)[C@@H]2CN(C)C=C(C(N)=O)[C@@H]2C[C@@H]1O
enzyme activity | inhibitor | stopped-flow | Ki | > 100 µM | N#C[Se]CCCCCCOc1ccc2c(-c3ccccc3)cc(=O)oc2c1
binding |  |  | Kd | 0.17 µM | NS(=O)(=O)c1nnc(N2C(=O)c3cccc4c(N5CCOCC5)ccc(c34)C2=O)s1
enzyme activity | inhibitor | stopped-flow | Ki | 76.3 µM | CCCCCCC(=O)N[C@H]1CCOC1=O
enzyme activity | inhibitor | stopped-flow | Ki | > 100 µM | Cc1cc(=O)oc2cc(OCCCCCCSC#N)ccc12

Repeated from above:
observed | action | technique | quantity | value | SMILES
enzyme activity | inhibitor | absorbance | IC50 | 10 µM | CN1C=C(C(N)=O)[C@@H]2C[C@H](O)[C@@](NC(=O)CS(N)(=O)=O)(C(=O)O)[C@@H]2C1
